# Measured values pooled from the literature.
# Each line is one published result; not all experiments were run side by side.
# Matrix: plasma
# Route: oral
SMILES,test system,setting,half-life
COc1cccc(-c2ccc(NC(=O)C3=C(C(=O)O)CCC3)c(F)c2)c1,male human,"10 mg, single dose, fasted, healthy volunteers",26.6 h
O=C(c1nc2n(n1)[C@H](c1ccccc1)C[C@@H]2F)C1CC1,human,"150 mg, single dose, fasted, healthy volunteers",12.9 h
CCCOc1ccc([C@H]2CNC(=O)N2c2ccc3[nH]cnc3c2)cc1,human,"800 mg, fasted",7.77 h
C#C[C@]1(CO)O[C@@H](n2cnc3c(N)nc(F)nc32)C[C@@H]1O,human,"400 mg, single dose, fasted, healthy volunteers",48.5 h
O=C(O)COC[C@H]1CC[C@H](COC(=O)N(c2ccccc2)c2ccc(Cl)cc2)CC1,human,"100 µg, single dose, healthy volunteers",23.2 h
CS(=O)(=O)n1cc2c(n1)CN([C@H]1CO[C@H](c3cc(F)ccc3F)[C@@H](N)C1)C2,male human,"5 mg, single dose, fasted, healthy volunteers",66.7 h
C[C@@H]1CCC[C@H](n2cnc(-c3cc(Cl)ccc3-n3cc(Cl)nn3)cc2=O)c2cc(ccn2)-c2c(cnn2C(F)F)NC1=O,human,"500 mg, single dose, fed, healthy volunteers",10.7 h
CNc1nc(Nc2ccc(-n3cnc(C)n3)c(OC)c2)nc2c1CC[C@H]2c1ccc(F)cc1,human,"10 mg, single dose, healthy volunteers",16 h
C=CC(=O)Nc1cc(Nc2ncc(C(=O)OC(C)C)c(-c3cn(C)c4ccccc34)n2)c(OC)cc1N(C)CCN(C)C,human,single dose,20 h
Nc1ccc(-c2nc([C@H]3CCc4cc(-c5cc(Cl)ccc5-n5cnnn5)cc(=O)n43)c(F)[nH]2)c(F)n1,human,"20 mg, single dose, fasted",18.7 h
